Assay results gathered from unrelated publications.
A part holds a random share of what one study measured.

Study 1 — technique: RNA Bind-n-Seq; molecule type: RNA; sample: in vitro; tested at: 100 nM; baseline: input RNA pool; reading: higher = stronger binding
Target: RING finger protein unkempt homolog, zinc fingers 1-6, SBP tag (UNK, Homo sapiens, UniProt Q9C0B0, residues 30-357)
UniProt Q9C0B0, sequence (30-357, looked up): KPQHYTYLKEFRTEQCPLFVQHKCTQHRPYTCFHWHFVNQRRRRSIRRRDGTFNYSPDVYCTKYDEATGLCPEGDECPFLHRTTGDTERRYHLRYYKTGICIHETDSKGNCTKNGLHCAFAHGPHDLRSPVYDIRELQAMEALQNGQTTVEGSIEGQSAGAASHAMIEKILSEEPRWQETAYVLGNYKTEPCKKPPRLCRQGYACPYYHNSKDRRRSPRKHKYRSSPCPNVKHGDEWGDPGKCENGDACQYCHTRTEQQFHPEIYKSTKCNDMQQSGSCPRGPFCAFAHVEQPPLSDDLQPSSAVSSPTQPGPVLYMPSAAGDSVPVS
Notes: RNA with constant flanks, vertebrate orthologous sites, ends assumed
Constant ends, left off below: GGGAGUUCUACAGUCCGACGAUC … CAACAGAGGAUUGAGCAUCA
| Sequence | bound/input enrichment [ratio] |
| --- | --- |
| GCAAUGAAAAAGCAGCCCUUCUCCCAGCCCCCUUUUCACUAGGAGAUGCAAACGUUACCAUAGAAGAGCAAUUAAACUCAAUAAAUUUAUCUUUUCAGGAUGAUCCAGACUCCAGUACCA | 1.06 |
| UCAGUCUUCCACUUAGGGUCGGCCUCAAAUCUAUAGGAUCUAUGACAAAUGUAUUAUAUCUAGUUAAGUUGAGUUUAAUAUUUUUUUAUUAGCCUGUAAAUAAAGAUGGCAUCUUCUACA | 0.533 |
| GGGCGGCUGGUGGGGGAAUCCCCUGCCUUGGCCUUGCCUCUCCUUCCUGCCACGUGCCCCUAGUUAUUUUUUUUUUUUAACACCAUGUGAUUAAGGUCGGCGCUGCCUCCCCCGACCCAC | 2.49 |
| AUCCCUCAGUGACAGUAUGCCAUCUGUAGCAGAUUCCCACUCUAGCCAUUUUUCUGAAUUUAGUUGUUCUGACCUAGAAAGCAUGAAAACUUCUUGUAGUCAUGGUUCCAAUGAUUAUCA | 4.01 |
| CAAUUCAAUGGUCGAGGGUUCAGAACUCAAAAAGGUUCGCUCCAACUCCAGAAUUUACCAUAGGUAUUUUUUACUGGACGCCGACAUGCAGAGCCUGAGGUGGGAACCAUCUAAGAAGGA | 0.0938 |
| GGGACGCUUUGAUGUAAAAAUUGAAGUUAAGAGCUGAUCACAAGCACAAAUCCUCCCCUCUAGCCAUUUAAUAAGUUAAAAAUUACAAAAACAAAACCUACUAGUCUUGAACAAACUGUC | 8.77 |
| AAGAACUCUUGCAGUCUUAGAUGUUAUAAAAAAUAUGUAUAUCUGAAUUGUAAGAGUUGUUAGCACAGGUUUUUUUUUUUUUUUUUUAAGCACUUGUUUUGGGUACAAGGCAUGUCUGAA | 1.1 |
| AGUAGAUUUAUACGAAUACUGAAGUUACAGAGGAUAUCCAAGGUGGUGAUAAAGUGUGUGUUGGUAGUUACUAAAAGAACUUUAGCUGUUACUGCCUUGUAUUUCUAUCCCUUGUUUUAG | 0.438 |
| AUUUUUUAAAGUUUUUUUAAUUUAAUUUUUCCUUUUGGGGGUAAAGUUUGCUCUACCAAAUAGUGAUCGUAACAAAUUGAUCUGUUUUGGAUGUUGCUCUAGUGACAUGCAGUUAUAUAU | 0.629 |
| CCGAAAGGCCAAAUUCCCUCCUCCCUUCUACUGCUUCUACCAACUGGAAGCACAGAAAACUAGAAGUUCAUUUAUUUUGUUUUUUAAAAAAAUACACUGAUUUAACAUCCGAUAGGAAUG | 1.82 |
| GUGCAAGGAGAUUAUUCCAACUAGUGAAUUUAUUAACAGUAAAUUGACAGCAAAAGCAAACAGGCAGCUUCAAGAUCCUUUAGUCAUCAUGACAGGAAACAUCCCAACAUGGCUUACUGA | 0.853 |

Study 2 — technique: protein binding microarray; molecule type: double-stranded DNA, one strand shown; sample: in vitro; tested at: not given; baseline: not given; reading: higher = stronger binding
Target: Histone acetyltransferase KAT6A, winged helix 1, GST fusion (KAT6A, Homo sapiens, UniProt Q92794, residues 1-85)
Notes: 8-mer, flanks averaged, mean of 2 arrays, mostly near background
Target sequence (chain): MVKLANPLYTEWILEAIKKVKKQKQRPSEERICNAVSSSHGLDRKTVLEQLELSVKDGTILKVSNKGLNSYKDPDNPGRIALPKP
| Sequence | E-score |
| --- | --- |
| ACGCCAGT | -0.0594 |
| AACAAAGC | 0.0883 |
| GAAAGCCA | -0.19 |
| GCGAGGAA | 0.0573 |
| ACCCAGGA | -0.181 |
| ACACTCTA | -0.108 |
| CTCTGGAA | -0.145 |
| CCCGGTAC | 0.185 |
| ACGCCACT | -0.0517 |
| ACGGATCG | 0.225 |
| CATAAAAG | -0.18 |
| AGTGCGTG | 0.0254 |
| ACAGGACT | -0.196 |
| GATAAACA | -0.0651 |
| AAACATGC | 0.0745 |
| GTCATCTA | -0.046 |
| CGATGCAC | -0.102 |
| ATCCAAAA | -0.102 |
| GTATAGGA | -0.0686 |
| GGGGCATA | -0.13 |
| GGCCAACC | 0.023 |
| CGTAAAGC | 0.18 |
| CGTCGGCC | 0.398 |
| GATACGGC | 0.377 |
| CTAATGCC | 0.13 |

Study 3 — technique: universal PBM; molecule type: double-stranded DNA, one strand shown; sample: in vitro; tested at: not given; reading: higher = stronger binding
Target: Sal-like protein 4, full length isoform B (SALL4, Homo sapiens, UniProt Q9UJQ4-2, residues 1-616)
Notes: 8-mer, flanks averaged, mean of replicates
| Sequence | E-score |
| --- | --- |
| GCACGTGC | -0.142 |
| AGCGTGTC | -0.122 |
| AGTCGGCA | -0.161 |
| AGCGCGTA | -0.0423 |
| TTAGTCAA | 0.102 |
| AACTGTAC | 0.0895 |
| AATAAGAA | 0.296 |
| GTAAATGA | 0.2 |
| CCGTAACC | -0.134 |
| AATAAGTG | 0.26 |
| CAATTCGC | -0.0295 |
| TGACCGCA | -0.197 |
| CACCGATC | -0.293 |
| AATCTTCC | -0.0251 |
| CAGCGACG | -0.241 |
| CGGGACAC | -0.305 |
| GCGCCACA | -0.153 |
| AACCGACA | 0.0406 |
| CCTGTCCG | -0.259 |
| GATCTAAA | 0.122 |
| GGGCGCCC | -0.278 |
| ACCGTTAT | 0.179 |
| AGCGACAG | -0.108 |
| ATACTAGG | 0.169 |
| GACGATTA | 0.122 |

Study 4 — technique: RNA Bind-n-Seq; molecule type: RNA; sample: in vitro; tested at: 365 nM; baseline: no-protein control; reading: higher = stronger binding
Target: RNA binding protein fox-1 homolog 2, RRM domain, GST-SBP tag (RBFOX2, Homo sapiens, UniProt O43251-10, residues 100-194)
Notes: natural RNA segment, single round, ends assumed
Constant ends, left off below: GGGAGUUCUACAGUCCGACGAUC … UGGAAUUCUCGGGUGCCAA
Construct (chain): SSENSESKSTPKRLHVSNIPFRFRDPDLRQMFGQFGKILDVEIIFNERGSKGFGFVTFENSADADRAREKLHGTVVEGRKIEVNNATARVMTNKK
| Sequence | RBNS enrichment (R) |
| --- | --- |
| AUAUGCAGUGUUAGCCGAAUUAGAUUUACAAGACAAUCUAAGCUUUCCGGAUAAUUUUAUAUAUCAAACAUACAGGAUGGAUACAUAGUUGGCAACAGUCUACCUUAUUU | 0.39 |
| AGUCAUGGAAAUCCCUGGAAGGUUCACACAGCUCUCAUCCAAAGCCCUGGCCUUGCUAUGAGGGAAAGAUUGAAUAAGCAGCGCACAAGGCAUUCUGGUGCACUAACUUG | 0.289 |
| AUUGUGGGAAUUAAGGAAGUGACUCAUCCUCUUGAAGAUGCUGAAACAGGAGAGAAAGGGGAUGUAUCCAUGGGGGCAGGGCAUGACUUUGUCCCAUUUCUAAAGGCCUC | 0.53 |
| AGGAUCUGAGAGGAGAGGGUCCUUGCUCCAUGCAUGAGGACAUCCAUCCCACCCACUGCCUCUGAAGAGCUGUAGAGCAACCUGCUUUUGGCAUGGGUGGAUGGAUUUUU | 16.5 |
| GAAUAUGAGAAUUUGAUAUGUAAUUAUUUCACAAAUAUGAUCUUUUCAAUAACAAAAUAUCGUAAGUAGAAUGCUUUUGUGCCUUUGGAUACAAGAUUAAUCUUUAGAAA | 0.601 |
| AUAUAUAAGAGGCACACAUGUCCACGUGGAGGGCACAGUCAGGGAGAGUUGGAAAUGCAAAAUUGCCAAAUAGCACAAACAGUGAAUGUUUUCCAGUUAUACGAGAUGCC | 1.59 |
| GCGGGGGAAUGCAGCCAGUGUCCCCCUCCCCUCUUCCACCCCAGCUCCAGCCCUGGUCUUGUCUUUUCAUCCCUCUUCCCCACGACAGAAGAAGUUGUGGCCCUGGCCAU | 0.36 |
| AUAUUAGAACAGCGGAGGCUCUAAAAGCCCAGGAUUCUACUCAGUUAUGAAUGAAAAUCAAACGAAGAUCCAAGCUGUACUGAUGUCAGAGGGAUGGUUCCAUUUUGACA | 0.403 |
| CGUGAACCAACAGGGCCUGGCCUUCACUCCUCCAGGCCACAAUGCCCUGGGGUCAAGGGAAAGGAACUCUGUUAUCUUCUCAGAAUAAAUAUUACUGCCGCUCUAGAGGG | 0.786 |
| ACAGUGCCUAUACAUUGGACAAAAAGUCCAAGGAGAGCCAAACUAGUGCAGUAAACGUUUGUACCCAAGUCCUCACCACCAGUCAUGAGUUGGCCUGUCACUUAAGUCAU | 0.494 |
| GCACUGCUGAAGUUUUCACAAGUGGAGUGUUGAAGGUGAAUCAGUAGUCUUUGGAGUCUACAAGUGACUGUCAUUUUAAGCAACUCAUUAAAUAUUGGUUCAUUUUUUUU | 0.56 |
| UGGGCUCAAGCGAUUCUCUCUUCCUUGGCCUCUGGAGUAGACUAAAUGUGUUAGUCUUUGAAUGGAAAACAACUAUUUUCUCAUCAUUGGGUCAAUAUUGACUGAUCAGU | 0.373 |

Study 5 — technique: RNAcompete; molecule type: RNA; sample: in vitro; tested at: 20 nM; notes: 7-mer, probes averaged, single round; baseline: mean of 7-mers; reading: higher = stronger binding
Target: PABPC1L2, full length, GST fusion (mouse, UniProt A0ABA7IW68)
Construct (chain): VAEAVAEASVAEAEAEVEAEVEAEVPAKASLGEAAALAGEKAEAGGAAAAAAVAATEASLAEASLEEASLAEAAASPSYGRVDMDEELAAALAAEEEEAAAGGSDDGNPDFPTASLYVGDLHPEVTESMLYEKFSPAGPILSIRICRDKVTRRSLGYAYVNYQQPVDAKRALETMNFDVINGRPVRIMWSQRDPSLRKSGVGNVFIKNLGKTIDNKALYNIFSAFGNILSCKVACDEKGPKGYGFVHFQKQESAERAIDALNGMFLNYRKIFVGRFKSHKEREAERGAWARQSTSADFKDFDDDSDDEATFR
| Sequence | 7-mer Z-score |
| --- | --- |
| GUAGCUC | -0.275 |
| CGGACUA | 0.0225 |
| GGUUCGC | -0.358 |
| GUCCACA | -0.293 |
| GCCACAG | -0.0536 |
| UCGCGGC | -0.32 |
| AAAAGAG | 6.77 |
| CUGCUAC | -0.309 |
| UGCGUUU | -0.45 |
| GACAUUG | 0.00617 |
| CCUGUUG | -0.479 |
| AUCUGAA | 0.0714 |
| UACCGUU | -0.202 |
| AAGGGGC | 0.805 |
| UGAAAGG | -0.0319 |
| UCCUGAA | -0.173 |

Some of these lines once more (study 3):
| Sequence | E-score |
| --- | --- |
| CCGTAACC | -0.134 |
| AATAAGTG | 0.26 |
| CAATTCGC | -0.0295 |
| TGACCGCA | -0.197 |
| CACCGATC | -0.293 |
| AATCTTCC | -0.0251 |
| CAGCGACG | -0.241 |
| CGGGACAC | -0.305 |
| GCGCCACA | -0.153 |
